{"data": "Published values pooled from the literature", "note": "“And” joins repeats or separate records; there may be more than shown. ± marks the error that the study gave."}
{"SMILES": "COc1ccc2c(=O)n(C)c(-c3ccccc3)nc2c1", "system": "male Sprague-Dawley rat, heart", "conditions": "oral, 30 mg/kg, 0.5 h", "quantity": "tissue concentration", "result": "1.92 ng/mL"}
{"SMILES": "Cc1nn(CC(F)(F)F)cc1Nc1ncc(C2CC2)c(NCc2ccc(S(N)(=O)=O)cc2)n1", "assay": "PAMPA", "system": "PBS", "conditions": "5 h, pH 7.4", "quantity": "PAMPA permeability", "result": "not detected"}
{"SMILES": "CCn1ncc2c1-c1cnc(N)c(c1)O[C@H](C)c1cc(F)ccc1-c1nn(C)nc1C2", "system": "female athymic nude mice, sample B PDX", "conditions": "oral, 0.2 mg/kg twice daily for 5.5 days, 12 h", "quantity": "unbound plasma trough concentration", "result": "0.3 ± 0.02 nM"}
{"SMILES": "COc1cc(Nc2ncc3c(n2)-c2ccc(Cl)cc2C(c2c(F)cccc2OC)=NC3)ccc1C(=O)O", "assay": "measured: Constipation, all grades", "system": "cancer patients, phase 1/2", "conditions": "oral, dose not given, together with: pembrolizumab", "quantity": "patients with adverse event", "result": "17%"}
{"SMILES": "CC(C)(C(=O)N1CCOc2c(C#N)cncc2C1)C(F)F", "assay": "measured: skin irritation", "system": "healthy humans, both sexes", "conditions": "oral, 20 mg single dose", "quantity": "subjects with TEAE", "result": "0%"}
{"SMILES": "CCOc1c([C@H](C)n2nc(C)c3c(N)ncnc32)cc(Cl)c(F)c1[C@@H]1CNC(=O)C1", "assay": "measured: QRS >100 to ≤110 ms", "system": "previously treated B-cell malignancy", "conditions": "oral, 5 mg once daily, baseline below thresholds", "quantity": "ECG observations", "result": "0%"}
{"SMILES": "Cc1ccc(NS(=O)(=O)c2cc(C(=O)Nc3ccccc3C(=O)N3CCOCC3)ccc2Cl)c(C)c1", "system": "aqueous buffer", "conditions": "pH 7.4", "quantity": "thermodynamic solubility", "result": "< 7.14 µM"}
{"SMILES": "CCCc1ccc(-c2ccc(-c3cc(F)c(F)c(F)c3)c(F)c2)cc1", "system": "rat, placenta", "conditions": "5000 ng/mL in perfusate, high dose, mixture of 21 LCMs", "quantity": "median placental accumulation", "result": "195 ng/g"}
{"SMILES": "COc1ccc2[nH]c([S+]([O-])Cc3ncc(C)c(OC)c3C)nc2c1 (centres unmarked)", "system": "healthy Chinese volunteers CYP2C19 PM, plasma", "conditions": "oral, 20 mg single dose, enteric-coated capsules", "quantity": "AUC(0-t)", "result": "3.43 ± 1.5 µg·h/mL"}
{"SMILES": "CCCOc1ccc(NC(=O)CN2CCN(C)CC2)cc1-c1nc(CC)c(CC)c(=O)[nH]1", "system": "healthy Chinese men", "conditions": "10 mg, supine or semi-supine, together with: placebo", "quantity": "AUEC(0-4 h) diastolic BP", "result": "-14.6 ± 15.9 h·mmHg"}
{"SMILES": "CN(C(=O)n1cnc(-c2ccc[n+]([O-])c2)c1)[C@H]1CC[C@H](O)CC1", "system": "Wistar rat, medulla oblongata", "conditions": "oral, 10 mg/kg/day of BIA 10-2474, 48 h, repeated 5 days", "quantity": "concentration", "result": "9 ± 7 ng/g"}
{"SMILES": "O=C(Nc1cnccc1Cl)N1CCN(Cc2ccc3c(c2)OC(F)(F)O3)CC1", "assay": "multiple ascending dose", "system": "young men", "conditions": "75 mg, treatment-emergent adverse events", "quantity": "back pain incidence", "result": "0%"}
{"SMILES": "Cn1cc(Nc2nccc(-c3ccc4c(c3)CN(C3COC3)CC[C@H]4NC(=O)c3cn(C(C)(C)C)nn3)n2)cn1", "system": "human, whole blood", "conditions": "300 mg twice daily, day 7", "how to read": "relative to: pre-dose baseline", "quantity": "NKT cell count change", "result": "-16%"}
{"SMILES": "CNC(=O)c1cccc(-c2ccc([C@@H](O)[C@H]3O[C@H](CO)[C@@H](O)[C@H](O)[C@@H]3O)c(C)c2)c1", "system": "Sprague-Dawley rat, male, plasma", "conditions": "oral, 10 mg/kg", "quantity": "AUC(all)", "result": "0.0809 µg·h/mL and 0.0836 µg·h/mL"}
{"SMILES": "c1csc(CNc2cc[nH]n2)c1", "assay": "DNA damage, alkaline comet", "system": "Hsd:ICR(CD-1) mice, male, liver", "conditions": "oral gavage, 250 mg/kg/day, 3 days", "quantity": "tail DNA (mean)", "result": "2.4%"}
{"SMILES": "c1ccc(-c2nc(NCc3ccco3)c3ccccc3n2)nc1", "system": "Japanese Pharmacopoeia disintegration test solution 2", "conditions": "pH 6.8", "quantity": "kinetic solubility", "result": "0.073 mg/mL"}
{"SMILES": "CCN1CCN(Cc2ccc(Nc3ncc(F)c(-c4cc(F)c5nc6n(c5c4)[C@H](C)CCC6)n3)nc2)CC1", "system": "human, plasma", "conditions": "300 mg single dose, mean", "quantity": "CL/F", "result": "32 L/h"}
{"SMILES": "O=C(Nc1nc2cccc(-c3ccc(CN4CCS(=O)(=O)CC4)cc3)n2n1)C1CC1", "assay": "measured: vomiting", "system": "rheumatoid arthritis patients", "conditions": "oral, 150 mg once daily, 4 weeks, any relatedness", "quantity": "treatment-emergent adverse events", "result": "0%"}
{"SMILES": "Cl.[2H]C([2H])([2H])CC(=O)c1cnc(NC(=O)C2CC2)cc1Nc1cccc(-c2ncn(C([2H])([2H])[2H])n2)c1OC", "system": "human, fasted, multiple dose", "conditions": "oral, 40 mg twice daily, tablet, day 14, geometric mean", "quantity": "CL/F", "result": "12.3 L/h"}
{"SMILES": "C#C[C@]1(O)CC[C@H]2[C@@H]3CCC4=CC(=O)CC[C@@H]4[C@H]3CC[C@@]21C", "assay": "radioimmunoassay", "system": "HIV-infected women on protease inhibitor therapy, serum", "conditions": "oral, 0.35 mg daily, steady state, interval 0-72 h, geometric mean", "quantity": "AUC", "result": "0.0378 µg·h/mL"}
{"note": "For quick reference, copied from above:"}
{"SMILES": "Cc1ccc(NS(=O)(=O)c2cc(C(=O)Nc3ccccc3C(=O)N3CCOCC3)ccc2Cl)c(C)c1", "system": "aqueous buffer", "conditions": "pH 7.4", "quantity": "thermodynamic solubility", "result": "< 7.14 µM"}
{"SMILES": "CNC(=O)c1cccc(-c2ccc([C@@H](O)[C@H]3O[C@H](CO)[C@@H](O)[C@H](O)[C@@H]3O)c(C)c2)c1", "system": "Sprague-Dawley rat, male, plasma", "conditions": "oral, 10 mg/kg", "quantity": "AUC(all)", "result": "0.0809 µg·h/mL and 0.0836 µg·h/mL"}
